Experimental data gathered from unrelated publications.
A part holds a random share of what one study measured.

Series 1
Target: Sal-like protein 4, full length isoform A (SALL4, Homo sapiens, UniProt Q9UJQ4, residues 1-1053)
UniProt Q9UJQ4, sequence (whole entry, looked up): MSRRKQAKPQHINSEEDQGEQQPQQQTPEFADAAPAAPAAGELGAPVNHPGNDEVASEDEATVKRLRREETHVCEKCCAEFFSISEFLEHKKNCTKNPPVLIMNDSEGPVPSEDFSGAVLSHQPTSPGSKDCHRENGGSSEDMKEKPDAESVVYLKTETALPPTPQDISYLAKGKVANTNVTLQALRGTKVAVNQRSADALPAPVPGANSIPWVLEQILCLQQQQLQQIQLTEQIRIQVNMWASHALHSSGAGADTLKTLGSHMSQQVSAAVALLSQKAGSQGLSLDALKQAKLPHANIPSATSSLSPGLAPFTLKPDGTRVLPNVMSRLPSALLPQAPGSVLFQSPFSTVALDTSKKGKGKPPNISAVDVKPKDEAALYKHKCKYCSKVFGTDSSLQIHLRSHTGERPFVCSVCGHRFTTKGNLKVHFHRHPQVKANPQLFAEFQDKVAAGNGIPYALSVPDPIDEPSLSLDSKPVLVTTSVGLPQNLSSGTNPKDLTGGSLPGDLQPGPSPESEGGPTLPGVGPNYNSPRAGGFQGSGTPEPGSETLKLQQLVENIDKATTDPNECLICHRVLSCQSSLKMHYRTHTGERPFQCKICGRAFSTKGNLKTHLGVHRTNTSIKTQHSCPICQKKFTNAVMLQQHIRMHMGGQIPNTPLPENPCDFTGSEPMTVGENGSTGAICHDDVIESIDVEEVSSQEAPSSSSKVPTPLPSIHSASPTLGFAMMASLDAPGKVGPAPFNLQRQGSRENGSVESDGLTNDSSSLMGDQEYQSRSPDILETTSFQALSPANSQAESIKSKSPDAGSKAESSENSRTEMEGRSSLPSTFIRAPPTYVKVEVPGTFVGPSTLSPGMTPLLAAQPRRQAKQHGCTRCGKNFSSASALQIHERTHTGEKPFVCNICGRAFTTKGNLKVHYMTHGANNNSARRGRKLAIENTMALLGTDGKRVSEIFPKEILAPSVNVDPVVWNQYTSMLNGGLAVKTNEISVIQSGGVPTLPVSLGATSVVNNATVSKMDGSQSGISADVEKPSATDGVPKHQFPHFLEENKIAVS
Method: universal PBM
Molecule type: double-stranded DNA, one strand shown
Sample: in vitro
Tested at: 600 nM
Notes: 8-mer, flanks averaged, mean of replicates
Reading: higher = stronger binding
Strand | E-score
CCCACCCA | -0.153
CGGCAAGA | -0.113
AGGTATTA | 0.307
CCGACAGA | -0.158
CGTCCTGC | -0.229
GCGGAAAC | -0.146
AGTGGACG | 0.0104

Series 2
Target: Prothrombin, mature alpha-thrombin (F2, Homo sapiens, UniProt P00734)
Method: aptamer microarray, sandwich
Molecule type: DNA with 2'F-ANA
Sample: in vitro
Tested at: 200 nM
Notes: whole 15-mer aptamer, many near background
Together with: Cy3 exosite-II aptamer, 400 nM
Reading: higher = stronger binding
Strand: GGTTGGTGTGGTTGG
Modification | mean fluorescence intensity
2'F-ANA at 2 3 7 8 12 15 | 1210 a.u.
2'F-ANA at 2 3 5 6 7 8 13 | 76.1 a.u.
2'F-ANA at 2 4 5 8 11 12 | 119 a.u.
2'F-ANA at 4 7 10 13 14 15 | 58.4 a.u.
2'F-ANA at 3 4 11 14 | 383 a.u.

Series 3
Target: Histone acetyltransferase KAT6A, winged helix 2, GST fusion (KAT6A, Homo sapiens, UniProt Q92794, residues 85-181)
Method: protein binding microarray
Molecule type: double-stranded DNA, one strand shown
Sample: in vitro
Tested at: not given
Notes: 8-mer, flanks averaged, mean of 2 arrays, mostly near background
Relative to: not given
Reading: higher = stronger binding
Construct (chain): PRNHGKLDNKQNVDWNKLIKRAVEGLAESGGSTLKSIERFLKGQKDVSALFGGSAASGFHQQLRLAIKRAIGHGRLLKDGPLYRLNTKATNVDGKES
Strand | E-score
ATTGGCCA | -0.00681
AAATTGAA | -0.0758
TCGGGAAA | 0.197
GTGTTTCA | 0.0561
CGTAGCCA | -0.0539
ATCCACCC | -0.161
AGAATGTA | -0.0712
AGTTACTA | -0.0946

Other studies, line by line
Molecule | target | test | test system | conditions | scale | quantity | result
PhoQ, residues 284 288 289 292 302 303 SVHLDV | PhoP, residues 12 14 15 18 19 TQAIL (Escherichia coli, UniProt P23836) | Sort-seq, refers to: YFP reporter | E. coli | PhoQ-PhoP variant library, together with: 10 µM Mg2+ | relative to: high Mg2+ state, higher = stronger signaling | fold induction | 37.8

Some of these lines once more (series 3):
Strand | E-score
AAATTGAA | -0.0758
AGAATGTA | -0.0712
GTGTTTCA | 0.0561
